Published values of several laboratories.
Each numbered part is a random draw from the data of one study; scales do not carry over between parts. Substitutions count along the parent as printed.

Set 1 — technique: DHFR PCA, deep sequencing; sample: yeast; with: (+)-ABA 0.11 µM; relative to: wild-type fitted maximum; direction: higher = stronger binding
Target: ABI1, truncated, D143A, DHFR fusion (Arabidopsis thaliana)
Notes: methotrexate growth selection, single substitutions
Parent: PYL1, truncated, DHFR fusion (Arabidopsis thaliana); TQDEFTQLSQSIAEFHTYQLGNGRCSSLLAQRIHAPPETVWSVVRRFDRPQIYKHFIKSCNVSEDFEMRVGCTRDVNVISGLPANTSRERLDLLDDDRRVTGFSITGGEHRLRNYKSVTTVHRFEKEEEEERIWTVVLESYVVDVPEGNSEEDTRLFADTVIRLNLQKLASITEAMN
Variant	relative binding score [%]
D65R	9.32
E89R	-2.36
Q31D	-1.99
T1N	38
G102N	-3.06
G71I	1.82
W134D	14.8
G102Y	-8.79
F5H	6.36
D3F	38.3
R132A	49.3
L8C	2.15
F66L	2.34
S63G	47.4
L164P	7.38
D97A	36.3
F157N	1.76
E89P	-4.92
T135N	-2.39
E131K	61.6
S63Y	-2.14
A175W	4.45

Set 2 — technique: RNA Bind-n-Seq; form: RNA; sample: in vitro; tested at: 365 nM; relative to: no-protein control; direction: higher = stronger binding
Target: RNA binding protein fox-1 homolog 2, RRM domain, GST-SBP tag (RBFOX2, Homo sapiens, UniProt O43251-10, residues 100-194)
Notes: natural RNA segment, single round, ends assumed
Shared flanks, not repeated: GGGAGUUCUACAGUCCGACGAUC … UGGAAUUCUCGGGUGCCAA
Target sequence (chain): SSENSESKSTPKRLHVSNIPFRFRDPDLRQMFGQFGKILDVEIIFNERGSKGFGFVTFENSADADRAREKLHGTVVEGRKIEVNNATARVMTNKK
Sequence	RBNS enrichment (R)
ACAGUGGCUGGAGAGAAGCAGAUCUGUGCAACGUGCAGGGCAAGCCAGUGGCGUGGCCUCUGCCUCUAAGCGCUGAGCAUUGGGCCCCUUCCCCACCAGACCUUUGUAGC	0.449
UUUUUUCUCCUGCUCUGAGUCAGGUGGGCGUCCCCUCUAGAUCCAGGUCUGGGCAGGGGUCUGAUGGUCCACUGUGGGCUGUUUCCCUAUCCACCCCCCUCCUUGCUGGC	0.443
GGCAUGACAUCUAAAAGCUCACUGCCUAUGCAGGGCUCACUCCCCACCAUCCGGAUGGCCUCCCACAGGCCCUCCAGCCUCAAUCCUCCGUGCUUCCUUUUUUCCUUUCC	0.247
AUGCGCGGAGGAGCUAGCCUGAAGGAUUCUGGGAAUCAUGUCCAUCCCUUUUCCUGUCAGUGUUUUUGAAACCCACAGUUUUAGUUGGUGCUGAUGGAGGGAGGGGGAAG	0.414
AAUGCUUGUUUUUUUAUCCCUGUUGAGUUUUUUUAAUUAAACGACACAAAACUACUACAUUGCCGAUUUUCUUUCAUGGGUUGCAUUGUGUAGUCCUUUUGUCUAGCUGU	0.53
AAAAUCUUAUUCCAGUUUGCAAUUAAGCCCCAUUUCCAUUUCCACACAGCAACUGAUCGGCUUUCUGUCCUUCAGGUUUGCCAUUUCUGAACAUUUCCUAUAAAUGGAAU	1.08
ACUGCAUUAUUAUUGUGAAACAAACCGAUGUGGUUUAGAGCCACCAGCACUGACCCUUUCCUAGUUUCCCUAAUGCUAUCACUUAAAUAUUACAACAAAUGGGAGGUUCU	0.318
AAUACCUGUGGAAAACCAGGGAUCCUCUCCUGUUUCUCUCUCUUGCCUCCCCCUUUCCCUCCAUUCCUCUGUCGCCUCCCCCUCUCCUCCACUUUCUUUAAGAAUCAGGG	0.761
UAAGUAUGAAUCUGCUAUGAUAAAAGAAAUUCUCACUUCUCAAAUAGUCUUCUUGUAAGGAGCAUUGGGCUGUCAUCUUUGAGCUGCUUAUCAAAAUACAGAUCAUUAUU	0.494
AUGUCGACUUGAUUUCCUUUUAGUAGCAUCUCUCUCUUCCAUGUCUUGAUGUUAUGCAGGAAGUACAAAAGUACUUUAAAAUUUUGUUAUGAAAUAAAAAAAAAAAGGAU	1.07
UGUAUAAAGUCACAUGUACUGCCAUACUACUUCUUUGUAUAUAAAGAUGUUUAUAUCUUUGGAAGUUUUACAUAAAUCAAAGGAAGAAAGCACAUUUAAAAUGAGAAACU	0.797
GAGAAUUCUAGAUAGAUAGCUAAUCUGCUUUUAAUCAUGACAUUUUAAUCUACCUCUGUCUCUUUAACCACGCUGUCUCUGGACUGAGUGUCAGGAGGGAAGAGGGGAGU	0.264

Set 3 — technique: universal PBM; form: double-stranded DNA, one strand shown; sample: in vitro; tested at: not given; direction: higher = stronger binding
Target: Sal-like protein 4, full length isoform B (SALL4, Homo sapiens, UniProt Q9UJQ4-2, residues 1-616)
Notes: 8-mer, flanks averaged, mean of replicates
Sequence	E-score
CGTAAGAA	0.0845
CATATTTC	0.412
CTGGGTAA	0.00365
GATTCTTA	0.237
CTTGGACA	-0.187
CAAGTCCG	-0.209
AATCGCGT	-0.0858
CCTGAGAG	-0.229
ACCTCACA	-0.115
ACGAGACC	-0.202
AACCAAGT	0.0629
AGCGTCTG	-0.193
GGCCTACC	-0.335
GAGCGTAC	-0.0457
ATCCAAAA	0.242
GGCATCGA	-0.085

Set 4 — technique: EMSA with sequencing; form: double-stranded DNA, one strand shown; sample: in vitro; tested at: 10 and 20 nM; relative to: negative control set to 0; direction: higher = stronger binding
Target: Hepatocyte nuclear factor 3-alpha (Foxa1, Mus musculus, UniProt P35582, residues 1-468, full length assumed)
Sequence of UniProt P35582 (whole entry, looked up): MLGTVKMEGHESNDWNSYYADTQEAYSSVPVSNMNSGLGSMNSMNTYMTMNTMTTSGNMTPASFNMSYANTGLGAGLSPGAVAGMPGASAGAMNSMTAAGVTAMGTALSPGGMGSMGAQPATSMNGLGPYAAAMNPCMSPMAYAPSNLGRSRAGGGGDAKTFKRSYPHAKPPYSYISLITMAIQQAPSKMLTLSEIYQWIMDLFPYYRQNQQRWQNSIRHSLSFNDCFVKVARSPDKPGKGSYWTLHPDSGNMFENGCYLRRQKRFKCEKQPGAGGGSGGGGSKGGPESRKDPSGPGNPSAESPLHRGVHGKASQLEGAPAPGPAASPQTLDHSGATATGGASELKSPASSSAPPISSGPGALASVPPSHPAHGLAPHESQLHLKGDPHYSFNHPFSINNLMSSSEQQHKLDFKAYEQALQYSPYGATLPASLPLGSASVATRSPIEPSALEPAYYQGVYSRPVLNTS
Notes: whole designed probe, mean of two concentrations, ends assumed
Shared flanks, not repeated: GTGAGCGGTGCCCATTGATGGGGAAC … TTTCACTGGGATCGTGGGGAC
Sequence	normalised bound fraction
ATCTTCCCCCTCTTCCTTGCCCCACCAGCTCACCTACGGGGGTTATTTGCAGATAGGAAAATAAATAAAGCCGGCATTCGTTAACGCAGTTCACGCGCATACTGCTGTTTGCTCTGCATCTAACATGGTCCTTACGCGACGCCAGGCTCCGGGAGAGCAAAGCACCGTGTCAGGCGCATGATCCGGGCTCGCC	0.359 ratio
TAGGAATTTGGTTAGCTCCCTAAATAACTTCTCTGCTTTCCTCATCTGCAATTAGCTAAATGGAAAGCAATCGTGATCTCAGGATAAGCCTCAAGATTACATTTGAGTTCAGACGCCCTCACCCGGTACCAAGACTGCAAAGCAGCCCCAAATACACCCTAACCCATCTTTCCAAGCATAAATCCTTTTGCTC	-0.0612 ratio
GAAAAGTGGCCTTAAGCTTTACTTTCCTTTAGGGATACTACAGGCCTTTTGCCATTTAACAGATATAAAATGACACAGTGGTATGGAATATGCTTGTTTACATTGTACCAGTGTCCTTGCATTGAGACTTGCTGCCCATAGTACTGCTGTGACATCTGAAGCATCCCTGACTGGCCCCACTGGTTATTCTTCT	0.408 ratio
ATCTTCCCCCTCTTCCTTGCCCCACCAGCTCACCTTCCCGGGTTATTTGCAGATAGGAAAATAAATAAAGCCGGCATTCGTTAACCCTCTTCACGCGCATACTGCCAGAGCAAACAGATCTAACATGGGATGAATCATGCGCCAGGCTCCGGGAGAGCAAAGCACCGTGTCAGGGCCATGATCCGGGGTGGCC	0.388 ratio
GTGCAGCGCTCCTTCACAACACACACGTGAGCTGGGGCTGTAGCAGGTGGCCTGCCGACCAGCGTCTCCCCAACCCCCACAACATGCACTCAAAGTAATCTACAGCATTAGACAATTAGAAACCTACTTCCAGTCAACCTTACGCTCACTGAGGCCACTGCAGCACCGCCAGCCACGTCTCCAAAGCAGGCGA	-0.0688 ratio
AGGGACACTCAGAGAGTGAGGGAAGAAGGCTCTGAAGATCTCACTACTGCAGAGCAAACAGCTCCATACAGTGATCTTCCTCACCCCAGAGAATGTTTACTCTATTAAATGTTAGAAGAGCATGTGTAAATAGCAAGCTTATTTAGTTTTCAGTTCCACCTCCCTTGGAAAGGAAAAGTGATACAATCATCTT	0.389 ratio
TTTTAACTAGTATGTTTTAAACTTTGGTATTGTATTTCCCACTAAGAGCCCTTCTTTTTTCAAAATAATATTTATTCTACCAGATGAACTATGTAAACATAAAGCAATATGGACAAGCATTTATTCTTTTGTTTTTAATTAACTTGCCCACATGATTTCAAATTTCATTAGAATTTATATTATAGTATTTCAA	0.466 ratio
GAACAGATGGATGCAGACACAGCGTTTGGTTCTGAAGGTTTTTAAGAGTTATGGCTTCATCTCTTGATCAGGCCAACAAGGCCTACTACCCTATGTAAACAACGGCTTTCCCTCAAAGGGAGGGCCCCACACTGCTCTCCACTCTTATCATTTTGTGGCTCTCTCCTCCTCACCCACCCACCCCAATCCTGGC	0.454 ratio

Set 5 — technique: protein binding microarray; form: double-stranded DNA, one strand shown; sample: in vitro; tested at: not given; relative to: not given; direction: higher = stronger binding
Target: Histone acetyltransferase KAT6A, both winged helices, GST fusion (KAT6A, Homo sapiens, UniProt Q92794, residues 1-181)
Notes: 8-mer, flanks averaged, mean of 2 arrays, mostly near background
Target sequence (chain): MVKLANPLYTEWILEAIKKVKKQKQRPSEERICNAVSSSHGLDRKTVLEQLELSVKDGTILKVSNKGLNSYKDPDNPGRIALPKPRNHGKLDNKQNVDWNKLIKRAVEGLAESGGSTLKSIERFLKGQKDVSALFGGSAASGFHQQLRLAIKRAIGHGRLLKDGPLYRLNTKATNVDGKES
Sequence	E-score
CCAGGCAC	-0.202
CGTAGTAA	0.0348
CCCCAGGG	-0.0774
CCATACGA	-0.154
AGGCGGGG	0.0904
ATATTTTG	-0.127
GTCGAAAC	4.5e-05
CATAGGCC	0.00677
GCCCCACC	-0.0778
GGAAACCC	0.0866
ATGGTTCA	0.0657
CACCGAAA	-0.0622
ACATCGAA	0.151
CGGAAAGC	0.215
AAGATATG	-0.104
ACCGACTA	0.0903
CGTATTTC	-0.0123
CTCTCTTC	-0.102
TATCTAAA	0.03
CCACGAGA	-0.167
CACGATCG	0.0788

Set 6 — target: CCNA2, cyclin fold, Cln2 fusion (human); technique: yeast growth competition, sequencing; sample: yeast; notes: strong parent motif; relative to: not given; direction: higher = stronger binding
Parent: SGO1 docking peptide (human); PLAKRALKYTDEK
Variant	normalised enrichment score
K4A	1.38
R5A	0.178
T10A	3.75
P1A	2.12
L7A	0.736
